Published values of several laboratories.
Numbered parts are unrelated; each lists some results of a single study. Changes are numbered by the printed parent chain.

Study 1 — technique: RNA Bind-n-Seq; molecule type: RNA; matrix: in vitro; concentration: 365 nM; relative to: no-protein control; reading: higher = stronger binding; endpoint: RBNS enrichment (R)
Target: RNA binding protein fox-1 homolog 2, RRM domain, GST-SBP tag (RBFOX2, Homo sapiens, UniProt O43251-10, residues 100-194)
Notes: natural RNA segment, single round, ends assumed
Shared flanks, not repeated: GGGAGUUCUACAGUCCGACGAUC … UGGAAUUCUCGGGUGCCAA
Residues (chain): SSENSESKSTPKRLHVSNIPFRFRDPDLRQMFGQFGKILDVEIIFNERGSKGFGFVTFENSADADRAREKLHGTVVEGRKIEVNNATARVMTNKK
GCUGGCUCUGAAACAAUCCUUGCAGUUACUCCCCAGCUGUUCGUCUGGACAGCUCAUUCAAGUGGAUUUUUAACUAUUAGGGAUCACUGCGAAGUUUCGUUGGAUUUUAU: 0.256
CUUGCUUUUGCUUCUUUUCUUUUGAGACAUGUACCCUUUCUGAUUGGAUAAUUGAUGUUUAGCCAAGGCUGGCCUCAAAAUACUAGUAAUCUUUCUGUAAGCCUCUCAAG: 0.447
CCCAAUGGGGAGCCUCCAGCCACAAGUUCCCUGUCCUUAUCAGCCACUGGGUGGUUCCCACUGCAUGACCCUCUAUCCCUGCCAUCUGUCCCCAUGGUUUCCAGCUCAAU: 3.58
ACAGCCUGGCAGCCUGGCCCUCCUGGUGCCCACUCCCGCCAGCCCCUGCCUCGAGGACUGAUACUGCAGUGACUGCCGUCAGCUCCGACUGCCGCUGAGAAGGGUUGAUC: 0.7
UAUUUAUUUGGUUAUUCAAAAUACAUAUCAGAGUUUGGGUUUCCAGUCUUAGUUGCAUUUGUUGUUUAUUUGUUGGGCUCACCCAACUCUUGACACCAUAGCAGAGCAUC: 0.455
ACUGUCUUGCUAAUGUUCUGAUCACUGUGCGCCCCCUCCCUCUUCAGAAGGACCCUGGGCCUCUUGAGUUGGCCCCUCUGAGUUCCCUCCCUUUGCCCAUUUCAAGGACA: 3.84
AUACGUGCAGAUAGGGGGCAGGGUUCGUUUACAGUGCCAGCAAGCAUGGAGUUGUCAGUAUUGGAGUGAGUUGUCGAAUUGUAGCUGCAUCUUGGUUCCUUUACACAGCU: 4.78
CUUGGGCGCUUCCCACCUGCCCCGUCCCCCUAGAGACUCAGAGGACCCACCUGGGCCAAGGACUCCAAAGCCGCGGGGACACCGGGAAGUGCAGCGGGCCAGGCAGGCUG: 0.319
CCCUCCCACCACCAGCUCUAAGAUUCUAGGAUAGUCUUGAUAACAUUUCAGUACCUGAAUAGAUGUCAUUUUGUGUUGGUAUAUUCCUCUGCAAAAAGUAUUUUCAAUCU: 0.366
CUGCCCCACCUAGCCUGGGCAGCAGGGCUGCCAAGGUCAGAAUGGCCUGGCUAGGAGCCCUUCAGGCCUCUCUCUCCUCUGUCCACCCUUGGCCUGUCUCAUCCCUGUGG: 0.362
GGGCAACAGCUGCUGCUGCUUUUGAACAGAAUGGUAGACAGCAUUUACCCUCAGCCACUUCCUCUGGCUGUCACAGAACAGGAUGGUGGCCUGGGGGAUGCACACUUGUA: 0.53
GACUGCAGUCCCCAAGGAGACCCUGCCACAUGCUGGCCCUUUGAGUGAGAAUGCUGCAUCUUUCUACAUAUCUUCAUGAGAAUACUGAGAAUUGGAUUUUCCUUUUCAAA: 1.19

Study 2 — technique: universal PBM; molecule type: double-stranded DNA, one strand shown; matrix: in vitro; concentration: 600 nM; reading: higher = stronger binding; endpoint: E-score
Target: Sal-like protein 4, full length isoform A (SALL4, Homo sapiens, UniProt Q9UJQ4, residues 1-1053)
Chain of UniProt Q9UJQ4 (whole entry, looked up): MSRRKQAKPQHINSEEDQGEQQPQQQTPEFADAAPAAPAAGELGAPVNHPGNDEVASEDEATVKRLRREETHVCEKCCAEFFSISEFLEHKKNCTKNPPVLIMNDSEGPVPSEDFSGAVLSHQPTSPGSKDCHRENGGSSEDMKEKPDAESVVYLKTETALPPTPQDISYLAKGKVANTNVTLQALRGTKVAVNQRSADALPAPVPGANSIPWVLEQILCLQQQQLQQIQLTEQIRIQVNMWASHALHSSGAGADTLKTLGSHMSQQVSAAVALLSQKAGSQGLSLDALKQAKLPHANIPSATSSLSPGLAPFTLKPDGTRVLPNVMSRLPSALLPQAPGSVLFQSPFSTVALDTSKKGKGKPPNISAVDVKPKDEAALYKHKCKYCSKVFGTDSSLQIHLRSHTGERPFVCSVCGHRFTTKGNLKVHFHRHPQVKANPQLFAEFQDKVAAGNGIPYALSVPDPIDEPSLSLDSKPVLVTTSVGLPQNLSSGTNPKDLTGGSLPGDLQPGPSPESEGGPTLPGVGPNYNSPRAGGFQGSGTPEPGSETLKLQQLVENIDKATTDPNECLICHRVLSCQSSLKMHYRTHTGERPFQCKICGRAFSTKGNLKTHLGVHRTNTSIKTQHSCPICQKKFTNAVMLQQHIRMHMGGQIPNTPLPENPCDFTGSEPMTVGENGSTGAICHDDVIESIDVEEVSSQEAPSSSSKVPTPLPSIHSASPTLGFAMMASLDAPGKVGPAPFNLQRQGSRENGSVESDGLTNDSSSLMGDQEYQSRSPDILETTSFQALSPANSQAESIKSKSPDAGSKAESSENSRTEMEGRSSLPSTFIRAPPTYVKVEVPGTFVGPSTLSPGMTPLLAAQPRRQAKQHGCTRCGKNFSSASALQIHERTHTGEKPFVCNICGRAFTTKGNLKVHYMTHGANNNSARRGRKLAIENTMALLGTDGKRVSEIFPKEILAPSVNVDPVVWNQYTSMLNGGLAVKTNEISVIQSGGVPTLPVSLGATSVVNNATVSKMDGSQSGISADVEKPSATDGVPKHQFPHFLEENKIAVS
Notes: 8-mer, flanks averaged, mean of replicates
ATCCGAAC: -0.104
CACGTAGC: -0.285
GAATCGTA: 0.121
GAGGGATA: -0.0476
CATCATCC: -0.0593
GAACGGGA: -0.159
AGGCCCCC: -0.446
AAAAGTCT: 0.174
CCCCCCAA: -0.301
TCGCGAGA: -0.0507
GTTAATGA: 0.251
AATCGATC: 0.0253
AGACGTAT: 0.145
AATAAGCG: 0.158
AGCGTCCG: -0.278
ACATGGTG: 0.0606
ACTCTGGC: -0.313
GCCATGAA: -0.0745
AGGCACGC: -0.376
GGCTCGGA: -0.301
ACACAACC: -0.0682
GTAAGGTA: 0.214
CTTGCGTA: -0.0277
ACCCGGGC: -0.376
AGCGACCT: -0.171

Study 3 — target: CCNB3, cyclin fold, Cln2 fusion (human); technique: yeast growth competition, sequencing; matrix: yeast; notes: weak parent motif; relative to: not given; reading: higher = stronger binding; endpoint: normalised enrichment score
Starting sequence: MASTL docking peptide (human); PMIAKNLMCELDE
PMIAKNLMCEPDE [L11P]: 0.00275
PWIAKNLMCELDE [M2W]: -0.193
PMIAKNLMCEIDE [L11I]: 0.181
PMIAKNLMMELDE [C9M]: -0.0948
PMIAKNLMCQLDE [E10Q]: 0.322
PMIAKTLMCELDE [N6T]: 0.223
PMIAKALMCELDE [N6A]: -0.226
PMIAKLLMCELDE [N6L]: -0.0792
PMIAKFLMCELDE [N6F]: -0.0636
PMIFKNLMCELDE [A4F]: 0.183
PMIAKNLMAELDE [C9A]: 0.0715
PMIAKNLMCESDE [L11S]: -0.109
PMIAINLMCELDE [K5I]: 0.328
PMIAKNLMCVLDE [E10V]: 0.0993
PMIHKNLMCELDE [A4H]: 0.00361
PMIALNLMCELDE [K5L]: 0.165
PMIAKNPMCELDE [L7P]: -0.156
PMIAKNLMEELDE [C9E]: -0.45
PMIAKNLMCELNE [D12N]: -0.365
PMIAKNYMCELDE [L7Y]: 0.199
PMIAKNLMIELDE [C9I]: -0.418
PMIAKNLMCELRE [D12R]: -0.0186
PFIAKNLMCELDE [M2F]: 0.0896
PMIAKNLMCEGDE [L11G]: -0.119

Study 4 — technique: protein binding microarray; molecule type: double-stranded DNA, one strand shown; matrix: in vitro; concentration: not given; relative to: not given; reading: higher = stronger binding; endpoint: E-score
Target: Histone acetyltransferase KAT6A, winged helix 1, GST fusion (KAT6A, Homo sapiens, UniProt Q92794, residues 1-85)
Notes: 8-mer, flanks averaged, mean of 2 arrays, mostly near background
Residues (chain): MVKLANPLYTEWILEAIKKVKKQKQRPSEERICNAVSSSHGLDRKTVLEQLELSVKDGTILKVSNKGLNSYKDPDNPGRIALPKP
GGGGTTGA: 0.00553
GTTTATGA: -0.127
CAACGGCG: 0.401
ACCCGCCC: 0.335
AGACAGCA: -0.146
ACAACAGA: -0.178
GCGAAGAA: -0.103
TTGGCCAA: -0.0615
GCGTGGTA: 0.209
GCTGCACA: 0.0863
TACGAACA: -0.157
GTACTACA: -0.135
TATGACGA: -0.0246
ATCAGAGC: -0.0567
TACTTAAA: -0.117
GGACACTA: -0.0935
ACCAATGG: -0.158
CAACAACG: -0.13
CACCAAAC: -0.141
CCAGCCAC: -0.147
GTTGCAAA: -0.181
CTGTGGCC: 0.0282
ATAGAGCA: -0.193
GGGTCGTA: 0.06
AGAGCACA: -0.179

Study 5 — technique: DHFR PCA, deep sequencing; matrix: yeast; added: (+)-ABA 0.0091 µM; relative to: wild-type fitted maximum; reading: higher = stronger binding; endpoint: relative binding score
Target: ABI1, truncated, D143A, DHFR fusion (Arabidopsis thaliana)
Notes: methotrexate growth selection, single substitutions
Starting sequence: PYL1, truncated, DHFR fusion (Arabidopsis thaliana); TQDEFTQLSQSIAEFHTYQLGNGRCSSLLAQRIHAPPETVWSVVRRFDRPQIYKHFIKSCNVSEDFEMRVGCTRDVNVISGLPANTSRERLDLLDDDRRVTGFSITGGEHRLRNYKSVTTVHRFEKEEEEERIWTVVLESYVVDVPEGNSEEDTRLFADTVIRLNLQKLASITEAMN
R74T: -1.81%
Y141R: 0.532%
N149T: 51.5%
T135D: 4%
F66P: -3.16%
P83W: 4.98%
P146H: 3.64%
V143W: -2.42%
N22W: 25.9%
N61D: 33.2%
V43E: -3.41%
E67R: 9.94%
R32M: 25.4%
E125R: 26.8%
R99Y: 78.1%
A175E: 23.8%
I172T: 3.4%
L156V: 7.22%
V44K: -2.2%
M176W: 2.5%
R132Q: 40.9%
G81R: -0.461%
T86H: 22.3%
C60G: 0.478%
R90E: 4.88%

Study 6 — target: CEBPB, bZIP domain (human); technique: DHFR protein complementation; matrix: yeast; relative to: wild-type JUN-FOS pair; reading: higher = stronger binding; endpoint: binding fitness
Notes: single substitutions, most at no-binding floor
Starting sequence: JUN, bZIP domain (human); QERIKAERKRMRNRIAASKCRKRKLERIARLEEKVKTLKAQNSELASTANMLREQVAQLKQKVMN; partner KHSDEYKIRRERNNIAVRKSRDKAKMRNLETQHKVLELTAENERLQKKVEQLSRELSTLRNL
A40S: -1.45 natural log
K36C: -1.34 natural log
E54S: -1.24 natural log
R53M: -1.13 natural log
A57E: -0.935 natural log
L52E: -1.49 natural log
T48H: -1.28 natural log
E54N: -1.41 natural log
T48M: -1.29 natural log
S43D: -1.23 natural log
E33M: -1.47 natural log
R30L: -1.24 natural log
L52V: -1.38 natural log
L31F: -1.57 natural log
S47Y: -1.22 natural log
L52W: -1.46 natural log
K36H: -1.33 natural log
A57R: -1.29 natural log
L31N: -1.33 natural log
E33W: -1.48 natural log
L31P: -1.5 natural log
E44F: -1.42 natural log
E54R: -1.42 natural log
A46S: -1.32 natural log
E44R: -1.39 natural log
